Published values pooled from the literature.
Numbers after ± are the reported error.
Cell line: human erythrocytes

For `CC(=O)N[C@H](CCCCN)C(=O)N[C@H](CC(C)C)C(=O)N[C@H](CCCN)C(=O)N[C@H](CO)C(=O)N[C@H](CC(C)C)C(=O)N[C@H](CC(C)C)C(=O)N[C@H](CCCN)C(=O)N[C@@H](C(=O)N[C@H](CC(C)C)C(=O)N[C@H](CO)C(=O)N[C@H](CCCN)C(=O)N[C@H](C)C(=O)N[C@H](C)C(=O)N[C@H](C)C(=O)N[C@H](C)C(=O)N[C@H](C)C(=O)N[C@H](CC(C)C)C(=O)N[C@H](CCCN)C(=O)N[C@@H](C(=O)N[C@H](CC(C)C)C(=O)N[C@H](CC(C)C)C(=O)N[C@H](CCCN)C(=O)N[C@H](C)C(=O)N[C@H](CC(C)C)C(=O)N[C@H](CO)C(=O)N[C@H](CCCN)C(N)=O)[C@H](C)O)[C@H](C)O`, the HC50 was 0.9 µM (hemoglobin release; 18 h, pH 7.4, 37 °C, 50% hemolysis).
`CC[C@H](C)[C@H](NC(=O)[C@H](Cc1c[nH]c2ccccc12)NC(=O)[C@H](CCCCN)NC(=O)[C@H](CC(C)C)NC(=O)[C@@H](NC(=O)[C@@H](NC(=O)CNC(=O)[C@H](CCCCN)NC(=O)[C@H](Cc1c[nH]cn1)NC(=O)[C@H](CCCCN)NC(=O)[C@H](Cc1c[nH]c2ccccc12)NC(=O)[C@H](C)NC(=O)[C@H](CC(C)C)NC(=O)[C@H](CO)NC(=O)[C@@H](NC(=O)[C@H](Cc1ccc(O)cc1)NC(=O)[C@H](CCCCN)NC(=O)[C@@H](N)CCC(N)=O)C(C)C)[C@@H](C)O)[C@@H](C)CC)C(=O)N[C@@H](CC(N)=O)C(=O)N[C@@H](C)C(N)=O` — result for “highest non-haemolytic concentration”: over 600 µg/mL.
With `CC[C@H](C)[C@H](NC(=O)[C@H](CC(C)C)NC(=O)CNC(=O)[C@H](CCCCN)NC(=O)[C@@H](NC(=O)[C@@H](NC(=O)[C@H](CC(N)=O)NC(=O)[C@H](Cc1c[nH]c2ccccc12)NC(=O)[C@@H](NC(=O)[C@H](CCC(=O)O)NC(=O)CNC(=O)[C@H](Cc1c[nH]c2ccccc12)NC(=O)[C@@H](N)CC(C)C)[C@@H](C)CC)[C@@H](C)O)C(C)C)C(N)=O` the hemolysis was under 50% (up to 200 µg/mL, 1 h, 37 °C).
`CC(C)[C@@H](CC(=O)N[C@@H](CCCCN)CC(=O)N[C@H](CC(=O)N[C@H](CC(=O)N[C@@H](CCCCN)CC(=O)N[C@H](CC(=O)N[C@H](CC(=O)N[C@@H](CCCCN)CC(N)=O)C(C)C)C(C)C)C(C)C)C(C)C)NC(=O)C[C@@H](NC(=O)C[C@@H](N)Cc1ccc(O)cc1)C(C)C` has a haemolysis of 8.8 ± 3.6% (antifungal MIC, 1 h, 37 °C; reference: melittin).
Under “minimum haemolytic concentration”, `CCCCCCCCCCCC(=O)NCC(=O)N[C@@H](CC(C)C)C(=O)N[C@@H](CC(C)C)C(=O)N[C@@H](CCCCN)C(=O)N[C@@H](CCCNC(=N)N)C(=O)N[C@H](C(=O)N[C@@H](CCCCN)C(=O)N[C@H](C(=O)N[C@@H](CC(C)C)C(=O)N[C@@H](CC(C)C)C(=O)NCCCC[C@H](NC(=O)[C@H](CC(C)C)NC(=O)[C@H](CC(C)C)NC(=O)[C@@H](NC(=O)[C@H](CCCCN)NC(=O)[C@@H](NC(=O)[C@H](CCCNC(=N)N)NC(=O)[C@H](CCCCN)NC(=O)[C@H](CC(C)C)NC(=O)[C@H](CC(C)C)NC(=O)CNC(=O)CCCCCCCCCCC)[C@@H](C)CC)[C@@H](C)O)C(N)=O)[C@@H](C)O)[C@@H](C)CC` is recorded as 15.2 µM (1 h, 37 °C, 10% haemolysis).
`CC(C)C[C@H](NC(=O)CN)C(=O)N[C@@H](CC(C)C)C(=O)N[C@@H](CCCCN)C(=O)N[C@@H](CC(C)C)C(=O)N[C@@H](CC(C)C)C(=O)N[C@@H](CCCCN)C(=O)N[C@@H](CCCCN)C(=O)N[C@@H](CC(C)C)C(=O)N[C@@H](CC(C)C)C(=O)N[C@@H](CCCCN)C(=O)N[C@@H](CC(C)C)C(=O)N[C@@H](CC(C)C)C(=O)N[C@@H](CCCCN)C(N)=O`: “minimal hemolytic concentration” 8 µM (1 h, 37 °C, hemolysis ≤5%).
`CCCCCC(=O)NCC(=O)N[C@@H](CC(C)C)C(=O)N[C@@H](CC(C)C)C(=O)N[C@@H](CCCCN)C(=O)N[C@@H](CCCNC(=N)N)C(=O)N[C@H](C(=O)N[C@@H](CCCCN)C(=O)N[C@H](C(=O)N[C@@H](CC(C)C)C(=O)N[C@@H](CC(C)C)C(=O)NCCCC[C@H](NC(=O)[C@H](CCCCNC(=O)[C@H](CC(C)C)NC(=O)[C@H](CC(C)C)NC(=O)[C@@H](NC(=O)[C@H](CCCCN)NC(=O)[C@@H](NC(=O)[C@H](CCCNC(=N)N)NC(=O)[C@H](CCCCN)NC(=O)[C@H](CC(C)C)NC(=O)[C@H](CC(C)C)NC(=O)CNC(=O)CCCCC)[C@@H](C)CC)[C@@H](C)O)NC(=O)[C@H](CC(C)C)NC(=O)[C@H](CC(C)C)NC(=O)[C@@H](NC(=O)[C@H](CCCCN)NC(=O)[C@@H](NC(=O)[C@H](CCCNC(=N)N)NC(=O)[C@H](CCCCN)NC(=O)[C@H](CC(C)C)NC(=O)[C@H](CC(C)C)NC(=O)CNC(=O)CCCCC)[C@@H](C)CC)[C@@H](C)O)C(N)=O)[C@@H](C)O)[C@@H](C)CC` — result for “minimum haemolytic concentration”: 0.71 µM (1 h, 37 °C, 10% haemolysis).
For `CC[C@H](C)[C@H](NC(=O)[C@H](CC(=O)O)NC(=O)[C@H](Cc1ccccc1)NC(=O)[C@H](CC(C)C)NC(=O)CN)C(=O)N[C@H](C(=O)N[C@@H](CCCCN)C(=O)N[C@@H](CCCCN)C(=O)N[C@H](C(=O)N[C@@H](CC(C)C)C(=O)N[C@@H](CCCCN)C(=O)N[C@@H](CC(C)C)C(=O)N[C@@H](CC(C)C)C(=O)N[C@@H](CCCCN)C(N)=O)C(C)C)C(C)C`, “minimal hemolytic concentration” read 8 µM (1 h, 37 °C, hemolysis ≤5%).
`CC[C@@H](C)[C@@H](NC(=O)[C@@H](C)NC(=O)[C@@H](CCCCN)NC(=O)[C@@H](CC(C)C)NC(=O)[C@@H](C)NC(=O)[C@H](NC(=O)[C@@H](Cc1c[nH]cn1)NC(=O)[C@@H](CC(C)C)NC(=O)[C@H](NC(=O)[C@H](NC(=O)[C@@H](CCCCN)NC(=O)[C@@H](CCCCN)NC(=O)[C@@H](C)NC(=O)[C@@H](CO)NC(=O)[C@@H](CCCCN)NC(=O)[C@@H](Cc1ccccc1)NC(=O)[C@H](NC(=O)[C@@H](CCCCN)NC(=O)[C@@H](CC(C)C)NC(=O)[C@@H](Cc1ccccc1)NC(=O)[C@@H](CO)NC(=O)[C@@H](CCCCN)NC(=O)[C@@H](Cc1c[nH]c2ccccc12)NC(=O)[C@@H](CCCCN)NC(C)=O)[C@H](C)O)[C@H](C)O)C(C)C)[C@H](C)O)C(=O)N[C@H](CO)C(=O)N[C@H](CO)C(N)=O` has an HC50 of 422 µg/mL (18 h, pH 7.4, 37 °C).

Repeated from above:
`CC(C)[C@@H](CC(=O)N[C@@H](CCCCN)CC(=O)N[C@H](CC(=O)N[C@H](CC(=O)N[C@@H](CCCCN)CC(=O)N[C@H](CC(=O)N[C@H](CC(=O)N[C@@H](CCCCN)CC(N)=O)C(C)C)C(C)C)C(C)C)C(C)C)NC(=O)C[C@@H](NC(=O)C[C@@H](N)Cc1ccc(O)cc1)C(C)C` has a haemolysis of 8.8 ± 3.6% (antifungal MIC, 1 h, 37 °C; reference: melittin).
